Published values pooled from the literature.
Parts stem from different laboratories: compare values within a part only. Positions count from the first letter of the parent shown.

Study 1
Target: CCNB2, cyclin fold, Cln2 fusion (human)
Technique: yeast growth competition, sequencing
Sample: yeast
Setting: weak parent motif
Baseline: not given
Reading: higher = stronger binding
Starting sequence: INSM1 docking peptide (human); PKAIRKLHFEDEV; partner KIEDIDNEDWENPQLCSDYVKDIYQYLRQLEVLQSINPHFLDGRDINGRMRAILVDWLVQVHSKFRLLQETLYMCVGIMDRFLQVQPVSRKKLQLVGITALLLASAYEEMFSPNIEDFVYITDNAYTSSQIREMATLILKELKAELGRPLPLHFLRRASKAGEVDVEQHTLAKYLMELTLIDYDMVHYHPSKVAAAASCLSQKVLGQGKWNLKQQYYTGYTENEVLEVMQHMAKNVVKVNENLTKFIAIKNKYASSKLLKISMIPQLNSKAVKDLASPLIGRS
| Substitution | normalised enrichment score |
| --- | --- |
| PMAIRKLHFEDEV [K2M] | -0.0546 |
| PKAIRKLHFEDCV [E12C] | 0.359 |
| PKAIRKSHFEDEV [L7S] | 0.619 |
| PKMIRKLHFEDEV [A3M] | 0.61 |
| PKAIRKLHFEFEV [D11F] | 0.39 |
| PKAIRKLCFEDEV [H8C] | 0.27 |
| PKAIRKLHFEAEV [D11A] | 0.636 |
| PQAIRKLHFEDEV [K2Q] | 0.398 |
| PKAIRELHFEDEV [K6E] | 3.09e-05 |
| PKAPRKLHFEDEV [I4P] | 0.476 |
| PKAIRNLHFEDEV [K6N] | 0.163 |
| PKAIKKLHFEDEV [R5K] | 0.141 |
| PKAIRKLHFMDEV [E10M] | 0.334 |
| PKAIRKLHFSDEV [E10S] | 0.342 |
| PKAIRKEHFEDEV [L7E] | -0.106 |

Study 2
Target: Sal-like protein 4, full length isoform A (SALL4, Homo sapiens, UniProt Q9UJQ4, residues 1-1053)
Chain of UniProt Q9UJQ4 (whole entry, looked up): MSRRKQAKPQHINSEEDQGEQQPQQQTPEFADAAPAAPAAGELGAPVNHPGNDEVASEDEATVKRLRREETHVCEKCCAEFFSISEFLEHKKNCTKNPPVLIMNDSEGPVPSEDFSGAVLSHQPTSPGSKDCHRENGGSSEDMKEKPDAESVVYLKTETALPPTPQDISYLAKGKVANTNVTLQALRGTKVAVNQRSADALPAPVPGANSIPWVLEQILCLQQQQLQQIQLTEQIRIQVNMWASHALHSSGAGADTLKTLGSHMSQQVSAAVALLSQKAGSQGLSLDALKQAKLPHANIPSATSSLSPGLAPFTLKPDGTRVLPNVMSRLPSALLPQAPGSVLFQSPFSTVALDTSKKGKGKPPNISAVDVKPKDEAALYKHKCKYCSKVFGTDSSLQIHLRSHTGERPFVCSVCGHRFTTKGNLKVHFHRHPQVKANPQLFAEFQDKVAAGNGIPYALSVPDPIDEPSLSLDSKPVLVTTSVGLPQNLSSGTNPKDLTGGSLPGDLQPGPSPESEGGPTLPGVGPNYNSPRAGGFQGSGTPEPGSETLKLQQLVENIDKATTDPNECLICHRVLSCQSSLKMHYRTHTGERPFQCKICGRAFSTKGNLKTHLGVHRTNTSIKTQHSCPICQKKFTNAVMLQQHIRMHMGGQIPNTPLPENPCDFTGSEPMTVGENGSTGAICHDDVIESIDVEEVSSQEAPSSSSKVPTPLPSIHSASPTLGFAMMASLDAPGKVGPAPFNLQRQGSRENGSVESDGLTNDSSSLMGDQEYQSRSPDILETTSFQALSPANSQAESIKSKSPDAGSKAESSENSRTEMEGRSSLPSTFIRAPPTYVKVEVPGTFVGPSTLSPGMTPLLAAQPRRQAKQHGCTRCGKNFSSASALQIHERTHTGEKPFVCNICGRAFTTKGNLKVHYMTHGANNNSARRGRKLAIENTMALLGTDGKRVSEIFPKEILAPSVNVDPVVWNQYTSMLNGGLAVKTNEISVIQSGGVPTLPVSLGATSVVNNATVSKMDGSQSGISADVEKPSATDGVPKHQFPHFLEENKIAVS
Technique: universal PBM
Form: double-stranded DNA, one strand shown
Sample: in vitro
Tested at: 600 nM
Setting: 8-mer, flanks averaged, mean of replicates
Reading: higher = stronger binding
| Strand | E-score |
| --- | --- |
| TCCACAGA | -0.0148 |
| CTTCCCAC | -0.111 |
| ATCTTGTC | 0.139 |
| AATGTCAG | 0.0759 |
| TAGAACTA | 0.0722 |
| GGTGGCCA | -0.212 |
| AAAGGCTT | 0.00447 |
| GAGCCTAC | -0.184 |
| CTATACCA | 0.211 |
| ACAACGTC | -0.0992 |
| GCGACAAC | -0.132 |
| AGCGTGAA | -0.0278 |
| GAGAACGA | 0.00422 |
| CACAGGTC | -0.193 |
| TACTACAA | 0.287 |
| AATGACGT | 0.126 |
| ACCTACCG | -0.136 |
| CGCGCACC | -0.27 |

Study 3
Target: POU domain, class 5, transcription factor 1, POU domain (Pou5f1, Mus musculus, UniProt P20263, residues 131-289)
Chain of UniProt P20263 (131-289, looked up): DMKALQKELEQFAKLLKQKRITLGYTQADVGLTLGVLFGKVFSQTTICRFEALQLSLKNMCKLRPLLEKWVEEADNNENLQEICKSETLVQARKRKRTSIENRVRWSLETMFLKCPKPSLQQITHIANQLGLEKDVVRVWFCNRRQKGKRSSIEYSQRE
Technique: Spec-seq
Form: double-stranded DNA, one strand shown
Sample: in vitro
Tested at: not given
Setting: whole probe, mean of replicates
Baseline: not given
Reading: lower = stronger binding
All sequences stand within: GAGTCGTCTCGTCAGCAC … CCGTAGAGCACTCAGGTC
| Strand | relative binding energy |
| --- | --- |
| ATGCTTTG | 0.653 ln ratio |
| TTCATAAT | 0.283 ln ratio |
| TGGCTAAT | 0.725 ln ratio |
| ATGCTGCA | 0.553 ln ratio |
| GACATAAT | 0.357 ln ratio |
| ATTTATAT | -0.369 ln ratio |
| ATAATAAT | -0.467 ln ratio |
| ATAAACAT | -0.242 ln ratio |
| TAACTAAT | 0.107 ln ratio |
| ATCACGAT | 0.679 ln ratio |
| ATGCAGAA | -0.515 ln ratio |
| TACCTAAT | 0.721 ln ratio |
| ATGCAACA | -0.0786 ln ratio |
| ATGCACGC | 0.204 ln ratio |
| ATGCATAG | -0.985 ln ratio |
| AATATAAT | 0.232 ln ratio |
| ATGAAGAT | 0.287 ln ratio |
| ATGCTTAG | 0.447 ln ratio |
| ACGTTAAT | 0.0233 ln ratio |
| ATGCCCAC | 0.612 ln ratio |
| AAATTAAT | -0.811 ln ratio |
| AGTTTAAT | 0.516 ln ratio |
| AAGATAAT | 0.365 ln ratio |
| ATTCTGAT | 0.162 ln ratio |
| ATAGGGAT | 0.598 ln ratio |

Study 4
Target: ATF1, bZIP domain (human)
Technique: DHFR protein complementation
Sample: yeast
Setting: single substitutions, most at no-binding floor
Baseline: wild-type JUN-FOS pair
Reading: higher = stronger binding
Starting sequence: JUN, bZIP domain (human); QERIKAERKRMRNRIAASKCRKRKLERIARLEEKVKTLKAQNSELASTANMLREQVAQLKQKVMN; partner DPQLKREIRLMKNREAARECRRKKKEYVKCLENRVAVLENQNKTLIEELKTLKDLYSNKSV
| Substitution | binding fitness [natural log] |
| --- | --- |
| R30V | -1.45 |
| T48G | -1.51 |
| I28E | -1.53 |
| E33S | -1.56 |
| Q55I | -1.5 |
| E54R | -1.47 |
| V35L | -1.53 |
| L45P | -1.53 |
| A57Q | -1.43 |
| I28F | -1.55 |
| L31M | -1.51 |
| L38I | -1.53 |
| E54D | -1.48 |
| L31Y | -1.48 |
| Q58P | -1.45 |
| L52I | -1.53 |
| E44C | -1.58 |
| L38G | -1.51 |

Study 5
Target: Phosphate system positive regulatory protein PHO4, full length, GST-tagged (PHO4, Saccharomyces cerevisiae, UniProt P07270, residues 1-312)
Technique: competition protein-binding microarray
Form: double-stranded DNA, one strand shown
Sample: in vitro
Tested at: 2 µM
Setting: whole 60-bp probe, lowest competitor level
Together with: Cbf1 competitor, 0.05 µM
Reading: higher = stronger binding
All sequences stand within: … GTCTTGATTCGCTTGACGCTGCTG
Residues (chain): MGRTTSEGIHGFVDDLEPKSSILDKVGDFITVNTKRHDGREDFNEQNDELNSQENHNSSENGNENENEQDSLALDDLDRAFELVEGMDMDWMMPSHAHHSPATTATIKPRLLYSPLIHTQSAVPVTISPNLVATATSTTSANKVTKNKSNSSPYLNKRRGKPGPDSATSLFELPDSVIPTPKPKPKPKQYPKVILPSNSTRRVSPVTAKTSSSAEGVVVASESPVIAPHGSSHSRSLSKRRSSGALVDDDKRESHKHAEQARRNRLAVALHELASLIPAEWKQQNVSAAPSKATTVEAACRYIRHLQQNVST
| Strand | fluorescence intensity [a.u.] |
| --- | --- |
| GTCTTGTCTCATTGCAAAGTGGGTGTCCCCACTTCA | 5210 |
| CGTCCCCCACCATGTCGCGTGTGAAGAATTGTGGGT | 7930 |
| CTAACGAAGGTTTGTCACTCTACTTACAAGCCAAGT | 3430 |
| CTTTCCCGATCTTGGGTTGTGGGTGTAGCACATTTG | 5540 |
| CGGGGTTAAGTTTACCACGTGTTTTGCTTGCAGCAG | 17400 |
| CTTTCCCGATCTTTTCACGTGAAGTTAGCACATTTG | 9700 |
| GCAATACATGAGAACTTCGTGCCAGCAAGGCCCAGT | 6070 |
| CCGTCAACGGTCAAGCCCGTGACAAAGCCACAATGA | 6640 |
| CTTTCCCGATCTTGAATCGTGGGTGTAGCACATTTG | 7690 |
| CGAGAATGTCCGGAACACATGTCAATATTTGCTCCT | 9800 |
| TGCGCAACAACTTGTCACTTTACTTTATGTCTAGAA | 2850 |
| TAGTATTCGATGTGTCTCGTGATGGCTTAATTTCAG | 7310 |
| ATGTACCGTTCAAGCCACCTGACATTATACCACCAG | 5590 |
| CGTCCTAGCGATTGAAGAGTGGGTGCCATGAGGAAG | 5800 |
| TTGCGCTAACGAAACCACATGGATCCTCCACACAAC | 7730 |
| CATGCCTTTTGTTCGTCCGTGACTCGGTCCTTCAAT | 4720 |
| CAAGAAATCGCACTTTACGTGCAAACAAATCAAATG | 5010 |
| AAAGCGGTAATTTGTCACGAGACTTCACATATCTAT | 7270 |
| TTTTTAGTAGTTTGTCATGCTGTATTAATGATTTTC | 4610 |
| TTGAAGAGGATTTGACTCGTGTTGACAAGGCAATCA | 8220 |
| CTTTCCCGATCTTGTCACGCAACTTTAGCACATTTG | 5570 |

Study 6
Target: ABI1, truncated, D143A, DHFR fusion (Arabidopsis thaliana)
Technique: DHFR PCA, deep sequencing
Sample: yeast
Setting: methotrexate growth selection, single substitutions
Together with: (+)-ABA 710 µM
Baseline: wild-type fitted maximum
Reading: higher = stronger binding
Starting sequence: PYL1, truncated, DHFR fusion (Arabidopsis thaliana); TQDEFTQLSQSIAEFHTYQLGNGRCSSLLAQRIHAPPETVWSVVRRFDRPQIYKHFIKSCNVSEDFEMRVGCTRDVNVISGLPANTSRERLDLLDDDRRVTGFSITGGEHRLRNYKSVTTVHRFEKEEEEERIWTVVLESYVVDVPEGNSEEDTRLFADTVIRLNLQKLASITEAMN
| Substitution | relative binding score [%] |
| --- | --- |
| S171H | 101 |
| D159E | 100 |
| V161A | 44.5 |
| R45P | -16.8 |
| G108Y | 23.4 |
| P146Y | 51.1 |
| S63H | 98 |
| S87L | 13.2 |
| K168E | 93.4 |
| L91Q | 41.9 |
| R24C | 95.4 |
| F66K | 103 |
| S42P | 96.1 |
| R111V | 41.3 |

Single results of other studies
| Molecule | target | assay | test system | conditions | scale | measurement | value |
| --- | --- | --- | --- | --- | --- | --- | --- |
| PhoQ, residues 284 288 289 292 302 303 AGGCYF | PhoP, residues 12 14 15 18 19 NMSSL (Escherichia coli, UniProt P23836) | Sort-seq, refers to: YFP reporter | E. coli | PhoQ-PhoP variant library, together with: 10 µM Mg2+ | baseline: high Mg2+ state, higher = stronger signaling | fold induction | 3.37 |

Repeated from above (study 3):
| Strand | relative binding energy |
| --- | --- |
| ATGAAGAT | 0.287 ln ratio |
| ACGTTAAT | 0.0233 ln ratio |
| ATTCTGAT | 0.162 ln ratio |
| ATAATAAT | -0.467 ln ratio |
| GACATAAT | 0.357 ln ratio |
| ATTTATAT | -0.369 ln ratio |
| TAACTAAT | 0.107 ln ratio |
| AATATAAT | 0.232 ln ratio |
| ATGCTTAG | 0.447 ln ratio |
| TGGCTAAT | 0.725 ln ratio |
| AAGATAAT | 0.365 ln ratio |
| ATCACGAT | 0.679 ln ratio |
| ATGCAACA | -0.0786 ln ratio |
| ATGCTTTG | 0.653 ln ratio |
| ATGCAGAA | -0.515 ln ratio |
| AAATTAAT | -0.811 ln ratio |
| ATGCACGC | 0.204 ln ratio |
